Results collected from several papers.
Each numbered part is a random draw from the data of one study; scales do not carry over between parts.

Block 1
Target: Sal-like protein 4, full length isoform A (SALL4, Homo sapiens, UniProt Q9UJQ4, residues 1-1053)
UniProt Q9UJQ4, sequence (whole entry, looked up): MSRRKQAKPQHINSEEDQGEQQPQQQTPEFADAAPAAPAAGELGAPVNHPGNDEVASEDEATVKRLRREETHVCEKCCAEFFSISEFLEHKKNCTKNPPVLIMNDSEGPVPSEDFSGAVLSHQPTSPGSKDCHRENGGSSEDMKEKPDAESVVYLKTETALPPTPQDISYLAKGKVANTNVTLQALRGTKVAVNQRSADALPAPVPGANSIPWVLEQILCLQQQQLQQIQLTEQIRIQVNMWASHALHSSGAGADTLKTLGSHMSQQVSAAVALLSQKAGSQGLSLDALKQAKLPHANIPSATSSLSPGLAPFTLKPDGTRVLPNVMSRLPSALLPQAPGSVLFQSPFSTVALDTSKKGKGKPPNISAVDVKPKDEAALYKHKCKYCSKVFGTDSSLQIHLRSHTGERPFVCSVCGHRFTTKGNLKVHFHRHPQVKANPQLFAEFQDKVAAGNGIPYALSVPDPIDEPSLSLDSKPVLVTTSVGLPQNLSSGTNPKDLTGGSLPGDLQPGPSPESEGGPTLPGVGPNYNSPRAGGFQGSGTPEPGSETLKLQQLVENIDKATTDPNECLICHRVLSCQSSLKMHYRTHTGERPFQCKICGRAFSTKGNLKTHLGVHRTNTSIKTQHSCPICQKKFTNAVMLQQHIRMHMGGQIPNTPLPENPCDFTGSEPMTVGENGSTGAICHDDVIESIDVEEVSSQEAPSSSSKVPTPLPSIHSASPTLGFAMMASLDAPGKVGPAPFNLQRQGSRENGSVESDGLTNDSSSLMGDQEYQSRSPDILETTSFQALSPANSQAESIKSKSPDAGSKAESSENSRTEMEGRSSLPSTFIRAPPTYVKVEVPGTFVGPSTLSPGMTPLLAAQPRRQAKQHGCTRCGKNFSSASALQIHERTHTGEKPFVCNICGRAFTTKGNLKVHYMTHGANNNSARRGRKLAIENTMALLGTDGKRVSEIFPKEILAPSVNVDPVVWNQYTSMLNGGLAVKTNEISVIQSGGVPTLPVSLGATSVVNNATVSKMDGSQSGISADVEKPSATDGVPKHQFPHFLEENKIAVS
Method: universal PBM
Form: double-stranded DNA, one strand shown
Matrix: in vitro
Tested at: 600 nM
Setting: 8-mer, flanks averaged, mean of replicates
Reading: higher = stronger binding
Sequence	E-score
CGTCAGCA	-0.108
GGGTCACC	-0.348
CTTTGTCA	0.069
CGGATTAG	-0.0289
TCGCACAA	-0.00146
AACTGGGC	-0.346
CGTGCAGC	-0.235
GAATGTAC	-0.0417
CCAATGAC	-0.00231
GTGGGTGA	-0.0533
AAAGGCGA	-0.0294
ACTGTCCT	-0.0434
TGGTAAAA	0.172
CAGGGATA	0.0548
AGACTTAT	0.217
CAGAGTTA	-0.0369

Block 2
Target: Prothrombin, mature alpha-thrombin (F2, Homo sapiens, UniProt P00734)
Method: aptamer microarray, sandwich
Form: DNA with 2'F-ANA
Matrix: in vitro
Tested at: 200 nM
Setting: whole 15-mer aptamer, many near background
Added: Cy3 exosite-II aptamer, 400 nM
Reading: higher = stronger binding
Sequence: GGTTGGTGTGGTTGG
Modification	mean fluorescence intensity
2'F-ANA at 2 3 5 6 7 11 13 15	62.9 a.u.
2'F-ANA at 1 2 3 6 9 11 12 13 14 15	74.8 a.u.
2'F-ANA at 1 2 3 4 7 8 10 12 13 14 15	64 a.u.
2'F-ANA at 2 3 5 7 8 11 13 14 15	57 a.u.
2'F-ANA at 1 6 7 12 13 15	338 a.u.
2'F-ANA at 3 9 10 11 14	397 a.u.
2'F-ANA at 1 3 4 5 6 7 8 11 14	47.8 a.u.
2'F-ANA at 2 4 6 8 9 10 14 15	69.8 a.u.
2'F-ANA at 1 3 6 7 9 10 12 13 14 15	66.3 a.u.
2'F-ANA at 2 7 8 9 10 11 12 14 15	102 a.u.
2'F-ANA at 5 6 7 12 13 14 15	46.8 a.u.
2'F-ANA at 2 4 5 6 7 8 9 12 13	114 a.u.
2'F-ANA at 1 2 3 7 8 9 12 13 14 15	299 a.u.
2'F-ANA at 1 2 3 8 9 11	235 a.u.
2'F-ANA at 3 4 6 7 11	538 a.u.
2'F-ANA at 6 7 8 11 13 14 15	180 a.u.
2'F-ANA at 3 5 6 7 8 10 11 13 14	50.7 a.u.
2'F-ANA at 1 4 5 8 10 11 13 14 15	46.7 a.u.
2'F-ANA at 1 2 3 5 6 7 8 9 11 12 13	206 a.u.
2'F-ANA at 1 3 4 9 10 11 12 13	69.3 a.u.

Block 3
Target: Phosphate system positive regulatory protein PHO4, full length, GST-tagged (PHO4, Saccharomyces cerevisiae, UniProt P07270, residues 1-312)
Method: competition protein-binding microarray
Form: double-stranded DNA, one strand shown
Matrix: in vitro
Tested at: 2 µM
Setting: whole 60-bp probe, lowest competitor level
Added: Cbf1 competitor, 0.05 µM
Reading: higher = stronger binding
All sequences stand within: … GTCTTGATTCGCTTGACGCTGCTG
Target sequence (chain): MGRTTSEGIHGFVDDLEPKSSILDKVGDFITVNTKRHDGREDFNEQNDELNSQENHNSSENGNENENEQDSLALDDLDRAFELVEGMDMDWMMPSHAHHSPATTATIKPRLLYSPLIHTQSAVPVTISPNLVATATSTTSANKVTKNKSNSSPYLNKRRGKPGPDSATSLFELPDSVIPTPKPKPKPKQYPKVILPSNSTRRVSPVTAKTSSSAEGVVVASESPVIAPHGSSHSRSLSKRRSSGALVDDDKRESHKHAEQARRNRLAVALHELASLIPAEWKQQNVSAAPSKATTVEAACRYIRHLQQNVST
Sequence	fluorescence intensity [a.u.]
GTATCCATATCTTTTTGAGAGCATTGAAAGTATACG	4280
AAATTACTAAGTTGTCACCAAACTTACCCCGTATGA	3080
TCGTCCCGTACCGACCACGTGTTTTCCACCTGTAAT	18500
CTAACGAAGGTTTGATGGGTGGGTGACAAGCCAAGT	4350
AGCATATCCGCTGTTCACATGATACGGTCTAGGATT	5190
AAGAGCTTTCTATTACATGTGGGAAGACTAATATAG	9620
TTTTCCGCGCGAAAGCACGTTACCCGGACCCCGTCT	8420
GGATGTCTTGTTTAGCACGTGACGGAGAACTGTGGC	15100
CGGGGTTAAGTTTGCCGCGTGGGTGGCTTGCAGCAG	10500
GTTAAGTTATTATGACGCATGCAGATAGAAGGATCA	8950
AATTCACTTGATTCTCATGTGAGTACATCAGAAAAA	3900
CTGGGAAAACATCACCACGTCTCAAAGAACCTGCAA	5730
GTCTTGTCTCATTTTCACGTGTGTTTCCCCACTTCA	12200
GCGTAGACGGATTTGCACGATGCGATGATAAATATT	8830
AAACCTGGTTCTGCTACCGTGCCAGTCTTTGGTATT	4360
GCAAAACGCCCCGCCCACGTGGAGTTGACAGTTAAG	16200
AAATTACTAAGTTGATAAGTGGGTGACGCCGTATGA	3940
ATACGAACCATCCATCACGTGCAAAGACAAACCCTA	14400
TACGACGAAGCTTTGCACGTGTAGGAAAGAGGAAAT	14600

Block 4
Target: Histone acetyltransferase KAT6A, winged helix 2, GST fusion (KAT6A, Homo sapiens, UniProt Q92794, residues 85-181)
Method: protein binding microarray
Form: double-stranded DNA, one strand shown
Matrix: in vitro
Tested at: not given
Setting: 8-mer, flanks averaged, mean of 2 arrays, mostly near background
Baseline: not given
Reading: higher = stronger binding
Residues (chain): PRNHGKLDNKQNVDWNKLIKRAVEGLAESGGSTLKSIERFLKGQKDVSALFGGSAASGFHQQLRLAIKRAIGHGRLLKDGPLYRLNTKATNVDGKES
Sequence	E-score
TCCTTTCA	0.0754
CTACATAG	-0.0302
CACGCAAA	0.0003
AATCGACC	-0.0645
CCATACGC	0.0201
AAATGAAG	0.038
CGCTAGAC	-0.0412
AACTGGTA	-0.0561
ATTACGAC	0.0464
ATACGTTG	-0.199
AATCTAGT	0.105
CCAATTTC	0.0629
CTGGAACC	-0.0852
CACCGTAC	-0.127
GGGCATAA	-0.0325
ACTGCCAC	0.0735
AACTGATA	0.0178
GCATAGGC	-0.0873
AAGTTTCG	0.0673
AAAAGCCG	0.0238
CCGTCAAC	0.0392
CGTCGAGA	0.0612
CCAAACAA	0.167
GGGCAAAC	0.0936
AAATGTAT	-0.123

Block 5
Target: RING finger protein unkempt homolog, zinc fingers 1-6, GST-SBP tag (UNK, Homo sapiens, UniProt Q9C0B0, residues 30-357)
Method: RNA Bind-n-Seq
Form: RNA
Matrix: in vitro
Tested at: not given
Setting: RNA with constant flanks, human and mouse sites, ends assumed
Baseline: input RNA pool
Reading: higher = stronger binding
All sequences stand within: GGGAGUUCUACAGUCCGACGAUC … CAACAGAGGAUUGAGCAUCA
Target sequence (chain): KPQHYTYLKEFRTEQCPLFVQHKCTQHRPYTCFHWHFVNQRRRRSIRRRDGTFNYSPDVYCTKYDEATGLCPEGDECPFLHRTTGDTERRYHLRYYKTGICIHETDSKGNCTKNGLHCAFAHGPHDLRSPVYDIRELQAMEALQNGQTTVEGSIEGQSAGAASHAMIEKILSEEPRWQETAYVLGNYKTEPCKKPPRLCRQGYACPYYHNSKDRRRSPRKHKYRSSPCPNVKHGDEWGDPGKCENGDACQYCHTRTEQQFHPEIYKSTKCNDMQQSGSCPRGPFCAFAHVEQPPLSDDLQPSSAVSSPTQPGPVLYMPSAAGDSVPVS
Sequence	bound/input enrichment
UCAUUGACCACCAUGAUAAUACCUACACAGUCAAGUACAUUCCUGUGCAGCAGGGCCCAGUAGGUGUCAAUGUCACUUAUGGAGGAGAUCACAUCCCCAAGAGUCCAUUUUCAGUGGGAG	0.119 ratio
AAUCAAGAAGUAGAAUUCGGCAGAAAUCGAGAGAGGCUUCAGUUUUUUAAGUGGAGUUCAAGAGUUUUUAAGAAUGUGGCAGUGAUCCCUCCUGGAACUGGAAUGGCUCAUCAAAUAAAC	0.345 ratio
CCUGCCACUGUCGAGCAGCAGGAGCAUUGGUUUGAAAAGGCCCUACGAGACAAGAAGGGCUUCAUCAUCAAGCAGAUGAAGGAGGAUGGCGCCUGUCUCUUCCGGGCUGUAGCUGACCAG	0.0694 ratio
GGGCCUCUGUUCAAUACCGACUAUGACAUCCUUAAAAGCAAUUUGCAGAACUGCAGCAAGUUUAGUGCCAUACAGUGUGCAGCUGCAGUCCCCAGAGCUCCUGCAGAAUCCCCAUCUUCC	0.44 ratio
GAAGCCAUGAGUUAUGCUGAGGUCAUGAGGCUGGUGAAAGGCAUGAACUUCUCAGUGGUAGUGUUCGACACAGCACCCACCGGCCAUACACUCAGGCUCCUGAACUUCCCGACCAUCGUG	0.0946 ratio
GACACAAAAAACAAGGAUGGCGUGCUGGUGGAUGAAUUUGGACUGCCGCAGAUUCCCGCUUCGUAGACUUACAACAUUCCAGCACGUGAUGUGAAACAACAAGAGAAGUAUUCUGGGACU	0.848 ratio
CUGGGGCCAUUGGAGGCCCACUGUAGGUGGGAGGGAGCUGAUUUUGGGGUGGGGGGUGGGACUAGAGGGCAAUACUGAAGGGGUUAAACAGGUUUUUGCUCCUCAAGAAUUUGUUUGCCU	1.05 ratio
GGCAAAGUACAACAGCUACCAAAAUAUACAUCUCAAAUUGUGGGUAGAUUCAUUAAGCCUCUUAGCAAUGCAUACCACGAGUUAGCACAAGUGUAUUCAACCAACAACCCCUCAGAACUC	0.455 ratio

Some of these lines once more (block 5):
Sequence	bound/input enrichment
UCAUUGACCACCAUGAUAAUACCUACACAGUCAAGUACAUUCCUGUGCAGCAGGGCCCAGUAGGUGUCAAUGUCACUUAUGGAGGAGAUCACAUCCCCAAGAGUCCAUUUUCAGUGGGAG	0.119 ratio
AAUCAAGAAGUAGAAUUCGGCAGAAAUCGAGAGAGGCUUCAGUUUUUUAAGUGGAGUUCAAGAGUUUUUAAGAAUGUGGCAGUGAUCCCUCCUGGAACUGGAAUGGCUCAUCAAAUAAAC	0.345 ratio
CCUGCCACUGUCGAGCAGCAGGAGCAUUGGUUUGAAAAGGCCCUACGAGACAAGAAGGGCUUCAUCAUCAAGCAGAUGAAGGAGGAUGGCGCCUGUCUCUUCCGGGCUGUAGCUGACCAG	0.0694 ratio
GGGCCUCUGUUCAAUACCGACUAUGACAUCCUUAAAAGCAAUUUGCAGAACUGCAGCAAGUUUAGUGCCAUACAGUGUGCAGCUGCAGUCCCCAGAGCUCCUGCAGAAUCCCCAUCUUCC	0.44 ratio
GAAGCCAUGAGUUAUGCUGAGGUCAUGAGGCUGGUGAAAGGCAUGAACUUCUCAGUGGUAGUGUUCGACACAGCACCCACCGGCCAUACACUCAGGCUCCUGAACUUCCCGACCAUCGUG	0.0946 ratio
GACACAAAAAACAAGGAUGGCGUGCUGGUGGAUGAAUUUGGACUGCCGCAGAUUCCCGCUUCGUAGACUUACAACAUUCCAGCACGUGAUGUGAAACAACAAGAGAAGUAUUCUGGGACU	0.848 ratio
CUGGGGCCAUUGGAGGCCCACUGUAGGUGGGAGGGAGCUGAUUUUGGGGUGGGGGGUGGGACUAGAGGGCAAUACUGAAGGGGUUAAACAGGUUUUUGCUCCUCAAGAAUUUGUUUGCCU	1.05 ratio
GGCAAAGUACAACAGCUACCAAAAUAUACAUCUCAAAUUGUGGGUAGAUUCAUUAAGCCUCUUAGCAAUGCAUACCACGAGUUAGCACAAGUGUAUUCAACCAACAACCCCUCAGAACUC	0.455 ratio
